Measured values of several laboratories.
Protocols differ between the studies behind these lines. ± marks the error that the study gave.

Molecule | test | system | setting | how to read | quantity | value
CC(=O)Nc1cccc(OCc2nnc(SCc3cccc(F)c3)o2)c1 | forced swimming test | mice | 40 mg/kg, 0.5 h | relative to: control | immobility duration decrease | 42.2%
Polymyxin B | – | human whole blood | 500 ng/mL, 4 h, 37 °C, together with: E. coli LPS 0.5 ng/mL | relative to: LPS without compound | TNF-α release | 2.1 ± 0.7%
CC(C)C[C@H](NC(=O)[C@H](CO)NC(=O)[C@H](CCCNC(=N)N)NC(=O)[C@H](CC(=O)O)NC(=O)[C@H](CCC(=O)O)NC(=O)[C@H](C)NC(=O)[C@@H]1CCCN1C(=O)[C@H](C)NC(=O)[C@H](CCC(=O)O)NC(=O)[C@@H]1CCCN1C(=O)[C@@H]1CCCN1)C(N)=O | HPLC-EC | rat F344, unilateral 6-OHDA lesion, ipsilateral striatum | intranasal, 300 µg daily, 5 weeks post lesion | – | dopamine level | 201 ± 171 ng/g
O=C(/C=C/c1ccc(O)c(O)c1)O[C@H](Cc1ccc(O)c(O)c1)C(=O)O | FRAP | – | unit not given | relative to: Trolox | FRAP antioxidant capacity | 1260 ± 4.5
insulin lispro | euglycemic clamp | obese type 2 diabetic patients | subcutaneous, 30 units, 8 h | – | maximum glucose infusion rate | 2 mg/kg/min
CCOc1ccc(-c2nc(-c3cccc4c3CCC4NCCO)no2)cc1OCC (centres unmarked) | blood CD4+ cell count reduction, flow cytometry | mouse | intraperitoneal, 5 h | – | ED50 | 0.5 mg/kg
Cc1ccc(S(=O)(=O)NC(=O)NN2CC3CCCC3C2)cc1 (centres unmarked) | – | mouse, STZ-induced diabetes | oral, 25 mg/kg, day 3 | – | blood glucose | 358 ± 18.1 mg/dL
CC(=O)Nc1cccc(OCc2nnc(SCc3ccccc3)o2)c1 | forced swimming test | mice | 40 mg/kg, 0.5 h | relative to: control | immobility duration decrease | 39.6%
CS/C(S)=N/CCCC[S+](C)[O-] (racemic) | RT-PCR, item: Abcb1b | rat, liver | oral gavage, 200 mg/kg, 96 h, dosed for four days | relative to: vehicle | mRNA fold change | 2.69
CC(C)NCCCC[C@H](NC(=O)[C@H]1CCC(=O)N[C@@H](Cc2ccccc2)C(=O)N[C@@H](Cc2ccc(O)cc2)C(=O)N[C@@H](CCCCNC(C)C)C(=O)N[C@H](CCCNC(=N)N)C(=O)N[C@@H](Cc2ccc3ccccc3c2)C(=O)NCC(=O)N1)C(N)=O | – | small cell lung cancer patients | subcutaneous, 20 mg/day, second cycle, together with: etoposide and carboplatin | relative to: baseline | maximum CD34+ cell count | 22.5 fold
CC(C)n1cnc(-c2ccc(F)cc2)c1-c1ncc(C(=O)Nc2ccc(N3CCN(C)CC3)cc2)[nH]1 | – | IPF patients | 60 mg once daily, week 12, least-squares mean | – | FVC change from baseline | 2.82%
CC1(C)CCC(CN2CCN(c3ccc(C(=O)NS(=O)(=O)c4ccc(NCC5CCOCC5)c([N+](=O)[O-])c4)c(Oc4cnc5[nH]ccc5c4)c3)CC2)=C(c2ccc(Cl)cc2)C1 | cell viability | canine leukemia cells, human | – | – | EC50 | 1650 nM
CCOC(=O)[C@H](C)C[C@@H](Cc1ccc(-c2ccccc2)cc1)NC(=O)CCC(=O)O | – | female C57BL/6JRj mice | oral, 0.7 nmol/g, together with: amino acids 34 mg oral | – | urea iAUC | 737 ± 190 mmol·min/L
CC(=O)Nc1cccc(OCc2nnc(SCc3cccc(C)c3)o2)c1 | forced swimming test | mice | 40 mg/kg, 0.5 h | relative to: control | immobility duration decrease | 32.1%
CCCCCCCCCCCCCCCC(=O)NCCCC[C@H](NC(=O)[C@H](CCC(=O)O)NC(=O)[C@H](CCC(=O)O)NC(=O)[C@H](Cc1ccc(O)cc1)NC(=O)[C@H](CCC(=O)O)NC(=O)CCCCCNC(=S)Nc1ccc2c(c1)C(=O)OC21c2ccc(O)cc2Oc2cc(O)ccc21)C(=O)N[C@@H](Cc1ccc(O)cc1)C(=O)N[C@@H](CCC(=O)O)C(=O)NCC(=O)NCC(=O)NCC(=O)NCC(=O)N[C@@H](CO)C(=O)NCC(=O)NCC(=O)NCC(=O)NCC(=O)N[C@@H](CO)C(=O)N[C@@H](Cc1ccccc1)C(=O)N[C@@H](CC(N)=O)C(=O)N1CCC[C@H]1C(=O)N[C@@H](CCCNC(=N)N)C(=O)N[C@@H](Cc1c[nH]cn1)C(=O)NC(C)(C)C(=O)N[C@@H](CCC(=O)O)C(=O)NCC(=O)N[C@H](C(=O)N[C@@H](Cc1ccccc1)C(=O)N[C@H](C(=O)N[C@@H](CO)C(=O)N[C@@H](CC(=O)O)C(=O)N[C@H](C(=O)N[C@@H](CO)C(=O)N[C@@H](CO)C(=O)N[C@@H](Cc1ccc(O)cc1)C(=O)N[C@@H](CC(C)C)C(=O)N[C@@H](CCC(=O)O)C(=O)NCC(=O)N[C@@H](CCC(N)=O)C(=O)N[C@@H](C)C(=O)N[C@@H](C)C(=O)N[C@@H](CCCCN)C(=O)N[C@@H](CCC(=O)O)C(=O)N[C@@H](Cc1ccccc1)C(=O)N[C@H](C(=O)N[C@@H](C)C(=O)N[C@@H](Cc1c[nH]c2ccccc12)C(=O)N[C@@H](CC(C)C)C(=O)N[C@H](C(=O)N[C@@H](CCCCN)C(=O)NCC(=O)N[C@@H](CCCNC(=N)N)C(=O)NCC(=O)O)C(C)C)[C@@H](C)CC)C(C)C)[C@@H](C)O)[C@@H](C)O | – | db/db mouse | subcutaneous, 90 nmol/kg twice weekly, 8 weeks | – | LDL/HDL ratio | 0.35 ± 0.13
insulin glargine | – | female Sprague-Dawley rat, blood | sc, 15 U/kg, 6 weeks | – | HbA1c | 4.46 ± 0.04%

Molecule | test | system | setting | how to read | quantity | value
CO[C@H]1/C=C\C=C(/C)C(=O)NC2=CC(=O)C(NCCN(C)C)=C(C[C@@H](C)C[C@H](OC)[C@H](O)[C@@H](C)/C=C(\C)[C@@H]1OC(N)=O)C2=O | western blot, item: LCK | human, PBMC | – | – | dose | ≥ 40 mg/m²
CC12CCC(CC1=O)C2(C)C (centres unmarked) | two-choice feeding trial | Brachylagus idahoensis | 1% dry weight in diet, 72 h, together with: monoterpene mixture 1% dry weight | – | proportion of food consumed | 66 ± 0.08%
insulin glulisine | – | obese type 2 diabetes patients | subcutaneous, 0.2 U/kg, before standard meal | – | maximum glucose excursion | 33 mg/dL
CC(=O)Nc1cccc(OCc2nnc(SCc3cccc(C(F)(F)F)c3)o2)c1 | forced swimming test | mice | 40 mg/kg, 0.5 h | relative to: control | immobility duration decrease | 46.8%
CCO[C@H](COc1ccc(C(F)(F)F)cc1)CSc1ccc(OCC(=O)O)c(C)c1 | circulating triglycerides at vehicle level | Sprague Dawley rats, diet-induced dyslipidemia | together with: ACC inhibitor 30 mg/kg | – | dose | ≥ 5 mg/kg
VQWRAIRVRVIR | carboxyfluorescein release | peptide, EYPC vesicles | 10 µg/mL, 250 s, pH 7.4, 25 °C | relative to: Triton X-100 | leakage | 1%
COc1ccccc1Oc1c(NS(=O)(=O)c2ccc(C(C)(C)C)cc2)nc(-c2ncccn2)nc1OCCO | – | human | dose not given | – | mean pulmonary arterial pressure | 63 mmHg
AGEDPHGYFLPGQFA | – | peptide, C57BL/6J mouse, zymosan peritonitis | ip, 8 pg/mouse, dosed 1 h before zymosan, together with: zymosan 10 µg | – | time of peak neutrophilia | 2 h
CCCOc1ccc(S(=O)(=O)NCCC2CCCN2C)cc1-c1nc2c(CCC)nn(C)c2c(=O)[nH]1 (centres unmarked) | ramp cycle exercise test | human adolescents after Fontan palliation | oral, 87.5 mg once daily, day 5 | – | maximal VO2 | 27.1 ± 5 mL/min/kg
O=C1N=C(NN=C2C(=O)Nc3ccccc32)SC1=C1c2ccccc2-c2nc3cc(F)ccc3nc21 | – | mouse, STZ-induced diabetes | oral, 25 mg/kg, day 3 | – | blood glucose | 341 ± 39.2 mg/dL
C[C@]12C=CC(=O)C=C1CC[C@H]1[C@@H]3C[C@@H](O)[C@](O)(C(=O)CO)[C@@]3(C)C[C@H](O)[C@@]12F | histology | rat, MIA-induced osteoarthritis, tibia | intra-articular, 0.06 mg on 5, 12, 19 days after MIA, day 26 | relative to: vehicle | bone resorption reduction | 34 to 39%
insulin glulisine | euglycemic clamp | healthy volunteers | subcutaneous, 0.15 U/kg, 8 h | – | mean duration of action | 189 ± 33 min
CCCCc1ncc(CO)n1Cc1ccc(-c2ccccc2-c2nn[nH]n2)cc1 | – | mouse DSS colitis | transanal, 100 mg/kg/day | – | time to heme-positive stool | 7 ± 1.4 days
CC(=O)Nc1cccc(OCc2nnc(SCc3ccc(C)cc3)o2)c1 | forced swimming test | mice | 40 mg/kg, 0.5 h | relative to: control | immobility duration decrease | 39.2%
CC[C@H](C)[C@H](NC(=O)[C@H](Cc1ccc(O)cc1)NC(=O)[C@H](CCC(=O)O)NC(=O)[C@H](CCCNC(=N)N)NC(=O)[C@@H](NC(=O)[C@H](Cc1c[nH]c2ccccc12)NC(=O)[C@H](CCCCN)NC(=O)[C@H](CCCCN)NC(=O)[C@H](CCC(=O)O)NC(=O)CNC(=O)CON=C(C)CCCC(=O)NCCCC[C@@H]1NC(=O)[C@H](CCC(=O)O)NC(=O)[C@H](CCCCNC(=O)CCCC(C)=NOCC(=O)NCC(=O)N[C@@H](CCC(=O)O)C(=O)N[C@@H](CCCCN)C(=O)N[C@@H](CCCCN)C(=O)N[C@@H](Cc2c[nH]c3ccccc23)C(=O)N[C@H](C(=O)N[C@@H](CCCNC(=N)N)C(=O)N[C@@H](CCC(=O)O)C(=O)N[C@@H](Cc2ccc(O)cc2)C(=O)N[C@H](C(=O)N[C@@H](CC(N)=O)C(=O)N[C@@H](CO)C(=O)N[C@@H](CC(C)C)C(=O)N[C@@H](CCC(=O)O)C(=O)N[C@@H](CCSC)C(=O)N[C@@H](CO)C(=O)O)[C@@H](C)CC)C(C)C)NC(=O)[C@@H]2CCCN2C(=O)[C@H](CSCC(N)=O)NC(=O)[C@H](CCCCNC(=O)CCCC(C)=NOCC(=O)NCC(=O)N[C@@H](CCC(=O)O)C(=O)N[C@@H](CCCCN)C(=O)N[C@@H](CCCCN)C(=O)N[C@@H](Cc2c[nH]c3ccccc23)C(=O)N[C@H](C(=O)N[C@@H](CCCNC(=N)N)C(=O)N[C@@H](CCC(=O)O)C(=O)N[C@@H](Cc2ccc(O)cc2)C(=O)N[C@H](C(=O)N[C@@H](CC(N)=O)C(=O)N[C@@H](CO)C(=O)N[C@@H](CC(C)C)C(=O)N[C@@H](CCC(=O)O)C(=O)N[C@@H](CCSC)C(=O)N[C@@H](CO)C(=O)O)[C@@H](C)CC)C(C)C)NC(=O)[C@H](CCCCN)NC(=O)[C@H](CCCCNC(=O)CCCC(C)=NOCC(=O)NCC(=O)N[C@@H](CCC(=O)O)C(=O)N[C@@H](CCCCN)C(=O)N[C@@H](CCCCN)C(=O)N[C@@H](Cc2c[nH]c3ccccc23)C(=O)N[C@H](C(=O)N[C@@H](CCCNC(=N)N)C(=O)N[C@@H](CCC(=O)O)C(=O)N[C@@H](Cc2ccc(O)cc2)C(=O)N[C@H](C(=O)N[C@@H](CC(N)=O)C(=O)N[C@@H](CO)C(=O)N[C@@H](CC(C)C)C(=O)N[C@@H](CCC(=O)O)C(=O)N[C@@H](CCSC)C(=O)N[C@@H](CO)C(=O)O)[C@@H](C)CC)C(C)C)NC(=O)[C@@H]2CCCN2C(=O)CNC1=O)C(C)C)C(=O)N[C@@H](CC(N)=O)C(=O)N[C@@H](CO)C(=O)N[C@@H](CC(C)C)C(=O)N[C@@H](CCC(=O)O)C(=O)N[C@@H](CCSC)C(=O)N[C@@H](CO)C(=O)O | multiple electrode aggregometry | human blood | 5 µM, 1 h, together with: cangrelor 0.34 µg/mL, CXCL12 with or without collagen | relative to: cangrelor alone | platelet aggregation | increased
gamma-MSH | – | Sprague Dawley rat, urethane-anaesthetised | iv, 15 nmol | – | heart rate response resolution time | 5.93 ± 0.97 min
